Assay results from different studies.
A part holds a random share of what one study measured. Several values in a cell are separate wells, animals, samples, runs or records. Converted amounts (≈) assume the structure as drawn.

Series 1
Structure (SMILES): NC/C(=C\F)COc1ccc(Cl)c(-c2cc(=O)[nH]c(=S)n2CC(N)=O)c1
Target: Myeloperoxidase (MPO, Homo sapiens, UniProt P05164)
UniProt P05164, sequence (whole entry, looked up): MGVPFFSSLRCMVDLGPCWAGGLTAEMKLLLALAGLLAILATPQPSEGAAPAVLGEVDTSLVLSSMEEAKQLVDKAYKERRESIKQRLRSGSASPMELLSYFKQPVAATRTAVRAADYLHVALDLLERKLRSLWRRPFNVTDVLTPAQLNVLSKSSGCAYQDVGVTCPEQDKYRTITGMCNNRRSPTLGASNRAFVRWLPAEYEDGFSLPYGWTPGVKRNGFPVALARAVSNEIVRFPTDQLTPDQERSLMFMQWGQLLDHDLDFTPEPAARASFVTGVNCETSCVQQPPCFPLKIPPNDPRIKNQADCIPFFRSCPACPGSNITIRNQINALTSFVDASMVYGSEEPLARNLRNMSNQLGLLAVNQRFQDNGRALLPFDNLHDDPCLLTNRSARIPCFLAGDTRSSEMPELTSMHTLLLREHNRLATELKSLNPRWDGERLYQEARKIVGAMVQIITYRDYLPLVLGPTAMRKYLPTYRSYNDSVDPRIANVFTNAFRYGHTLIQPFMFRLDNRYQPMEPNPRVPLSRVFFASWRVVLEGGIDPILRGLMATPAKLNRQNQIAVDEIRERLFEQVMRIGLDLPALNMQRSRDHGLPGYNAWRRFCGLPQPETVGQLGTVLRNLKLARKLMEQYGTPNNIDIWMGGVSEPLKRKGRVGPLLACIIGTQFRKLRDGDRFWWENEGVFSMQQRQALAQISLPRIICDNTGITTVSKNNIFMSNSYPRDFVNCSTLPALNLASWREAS
Observed: enzyme activity
assay | conditions | inhibition
inhibitor, fluorescence | 4.6 nM | -11.5%
inhibitor, fluorescence | 1.667 µM | 81.6%
inhibitor, fluorescence | 30 µM | 98.2%
inhibitor, fluorescence | 61.7 nM | 30.1%
inhibitor, fluorescence | 20.6 nM | 10.3%
inhibitor, fluorescence | 200 pM | -25.5%
 | 30 µM | 98.2%
inhibitor, fluorescence | 500 pM | -18.7% and -17.5%

Series 2
SMILES: C[C@@H]1CN(c2ccc(-c3cc(C(=O)NCCOCCOCCOCCOCCNC(=O)/C=C/c4[nH]cc(C(=O)N[C@@H](CC(N)=O)c5ccc(F)c(Cl)c5)c4-c4ccc(Cl)cc4F)ccc3F)cc2NC(=O)c2c[nH]c(=O)cc2C(F)(F)F)C[C@H](C)N1C
Observed: thermal unfolding
Technique: differential scanning fluorimetry
Tested at: 5.5 µM
Reading: higher = more unfolded
WDR5: WD repeat-containing protein 5 (WDR5, Homo sapiens, UniProt P61964)
DCAF1: DDB1- and CUL4-associated factor 1 (DCAF1, Homo sapiens, UniProt Q9Y4B6)
UniProt Q9Y4B6, sequence (whole entry, looked up): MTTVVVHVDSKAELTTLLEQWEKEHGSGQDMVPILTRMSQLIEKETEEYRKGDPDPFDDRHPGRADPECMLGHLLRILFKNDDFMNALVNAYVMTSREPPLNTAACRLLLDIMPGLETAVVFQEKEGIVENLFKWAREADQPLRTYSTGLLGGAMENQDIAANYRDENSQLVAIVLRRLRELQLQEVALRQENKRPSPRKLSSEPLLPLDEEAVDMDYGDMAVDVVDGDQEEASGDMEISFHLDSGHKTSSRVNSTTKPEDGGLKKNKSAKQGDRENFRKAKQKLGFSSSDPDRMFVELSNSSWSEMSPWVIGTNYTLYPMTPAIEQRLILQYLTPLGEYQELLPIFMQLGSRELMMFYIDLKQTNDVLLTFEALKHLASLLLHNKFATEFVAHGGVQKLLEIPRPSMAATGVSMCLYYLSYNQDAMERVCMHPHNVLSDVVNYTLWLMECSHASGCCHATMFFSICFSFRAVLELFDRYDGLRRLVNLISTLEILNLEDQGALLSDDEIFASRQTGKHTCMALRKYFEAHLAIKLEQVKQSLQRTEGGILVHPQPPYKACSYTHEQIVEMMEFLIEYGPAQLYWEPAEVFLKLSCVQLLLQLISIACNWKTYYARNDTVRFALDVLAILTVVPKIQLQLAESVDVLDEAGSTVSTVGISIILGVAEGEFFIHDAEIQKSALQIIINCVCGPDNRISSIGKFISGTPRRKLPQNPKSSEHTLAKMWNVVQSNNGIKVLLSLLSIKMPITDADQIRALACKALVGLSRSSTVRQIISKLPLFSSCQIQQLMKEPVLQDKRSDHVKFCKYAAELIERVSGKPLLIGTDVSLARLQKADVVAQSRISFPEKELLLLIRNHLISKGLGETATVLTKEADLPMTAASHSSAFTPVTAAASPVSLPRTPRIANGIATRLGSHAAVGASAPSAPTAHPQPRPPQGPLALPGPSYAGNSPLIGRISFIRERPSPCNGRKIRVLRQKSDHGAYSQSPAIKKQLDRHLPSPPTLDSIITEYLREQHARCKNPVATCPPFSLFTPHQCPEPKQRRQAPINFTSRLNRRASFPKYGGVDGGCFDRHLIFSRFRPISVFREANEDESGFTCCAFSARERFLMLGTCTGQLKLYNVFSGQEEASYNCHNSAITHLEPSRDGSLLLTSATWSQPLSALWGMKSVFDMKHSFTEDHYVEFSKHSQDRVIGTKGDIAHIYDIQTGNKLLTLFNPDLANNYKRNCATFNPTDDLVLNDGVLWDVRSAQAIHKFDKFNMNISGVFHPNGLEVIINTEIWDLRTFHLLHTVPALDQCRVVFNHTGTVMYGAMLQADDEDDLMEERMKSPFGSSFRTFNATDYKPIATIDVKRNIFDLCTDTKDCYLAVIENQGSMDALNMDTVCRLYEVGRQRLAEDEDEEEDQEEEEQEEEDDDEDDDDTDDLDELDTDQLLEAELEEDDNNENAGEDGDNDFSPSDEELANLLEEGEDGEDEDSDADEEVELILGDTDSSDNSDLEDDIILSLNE
target | conditions | SYPRO Orange fluorescence
WDR5 | 80.61 °C | 42200 a.u.
WDR5 | 78.01 °C | 34400 a.u.
DCAF1 | 80.41 °C | 44800 a.u.
DCAF1 | 28.8 °C | 9230 a.u.
DCAF1 | 84.01 °C | 41300 a.u.
DCAF1 | 50 °C | 15200 a.u.
WDR5 | 45.2 °C | 15400 a.u.
WDR5 | 59.41 °C | 15800 a.u.

Mixed results
Compound | tested on | assay | system | conditions | endpoint | result
Cn1cc(-c2cccc(CN3CCC4(CC3)COc3c4ccc4c3CN([C@H]3CCC(=O)NC3=O)C4=O)c2)cn1 |  |  | FaSSIF |  | solubility | 305 µM (≈ 160 µg/mL)
C#CCN1C(=O)C(O)(C(=O)O)Oc2cc(F)ccc21 (stereo not drawn) | Triticum aestivum | fresh weight |  | soil surface spray, 150 g ai/ha, 21 days, pre-emergence crop safety | inhibition | 14% and 12% and 11.5%

Some of these lines once more (series 2):
target | conditions | SYPRO Orange fluorescence
WDR5 | 59.41 °C | 15800 a.u.
